Measured values gathered from unrelated publications.
A part holds a random share of what one study measured. Positions count from the first letter of the parent shown.
UniProt P47898, sequence (whole entry, looked up): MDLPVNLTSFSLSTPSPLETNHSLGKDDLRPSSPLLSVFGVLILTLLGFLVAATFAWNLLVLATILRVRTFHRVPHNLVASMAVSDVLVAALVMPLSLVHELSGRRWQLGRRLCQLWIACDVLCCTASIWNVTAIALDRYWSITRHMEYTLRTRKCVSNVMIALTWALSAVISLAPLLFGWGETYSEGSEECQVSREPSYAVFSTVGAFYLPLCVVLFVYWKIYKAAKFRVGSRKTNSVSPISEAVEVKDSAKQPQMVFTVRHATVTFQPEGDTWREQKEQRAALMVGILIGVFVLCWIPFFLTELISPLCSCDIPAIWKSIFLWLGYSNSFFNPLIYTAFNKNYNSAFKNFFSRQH

Series 1 — target: CREB3, bZIP domain (human); method: DHFR protein complementation; medium: yeast; baseline: wild-type JUN-FOS pair; reading: higher = stronger binding
Setting: single substitutions, most at no-binding floor
Parent: JUN, bZIP domain (human); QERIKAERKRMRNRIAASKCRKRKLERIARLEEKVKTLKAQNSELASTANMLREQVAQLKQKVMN; partner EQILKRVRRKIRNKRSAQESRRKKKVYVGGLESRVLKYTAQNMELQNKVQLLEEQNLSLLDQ
Change	binding fitness
L38M	-1.49 natural log
V56N	-1.39 natural log
L38A	-1.57 natural log
A40E	-1.34 natural log
N42C	-1.34 natural log
T48D	-1.48 natural log
T37H	-1.5 natural log
V56W	-1.51 natural log

Series 2 — method: RNA Bind-n-Seq; molecule type: RNA; medium: in vitro; concentration: 20 nM; setting: 6-mer, flanks averaged, single round; added: 150 mM LiCl; baseline: input library; reading: higher = stronger binding
Target: TAR DNA-binding protein 43, full length, His tag (TARDBP, Homo sapiens, UniProt Q13148, residues 1-414)
Strand	6-mer enrichment (R)
AAAAAU	0.989
ACGUAA	0.828
GUACUC	0.857
GAUGAG	1.12
UCGGUC	0.883
CGAGAA	0.992
ACGACC	0.799
GGCGAC	0.943

Series 3 — method: RNA Bind-n-Seq; molecule type: RNA; medium: in vitro; concentration: 90 pmol; setting: 4-mer, random 30-nt RNA, single round; added: 3 µM DMDA-PatA, 2 mM ADP, 2 mM phosphate; baseline: input library; reading: higher = stronger binding
Target: Eukaryotic initiation factor 4A-I (EIF4A1, Homo sapiens, UniProt P60842, residues 1-406, full length assumed)
UniProt P60842, sequence (whole entry, looked up): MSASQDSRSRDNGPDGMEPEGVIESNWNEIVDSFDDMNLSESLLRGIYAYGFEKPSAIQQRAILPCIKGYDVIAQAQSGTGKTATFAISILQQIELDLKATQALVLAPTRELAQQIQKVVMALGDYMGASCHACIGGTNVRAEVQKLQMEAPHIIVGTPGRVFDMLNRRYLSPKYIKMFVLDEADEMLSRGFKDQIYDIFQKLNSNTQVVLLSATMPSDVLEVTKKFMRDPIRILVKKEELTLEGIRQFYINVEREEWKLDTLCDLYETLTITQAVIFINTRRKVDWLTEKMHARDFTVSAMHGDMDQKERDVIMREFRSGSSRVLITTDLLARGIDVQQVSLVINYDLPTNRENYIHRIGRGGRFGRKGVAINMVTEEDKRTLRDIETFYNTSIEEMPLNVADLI
Strand	4-mer enrichment [fold]
GGCA	0.919
CGUG	1.31
CUUC	0.568
AAUC	0.716
GUAC	0.71
UGUA	1.12
CUGA	0.656
CGAU	0.907

Single results of other studies
Compound	target	test	conditions	quantity	result
CC(=O)N1CCC(c2ccc(C(=O)NC3=NCCN3)cc2C(F)(F)F)CC1	5-hydroxytryptamine receptor 5A (HTR5A, Homo sapiens, UniProt P47898)	ligand displacement	10 µM	inhibition	-11.5%

Repeated from above (series 1):
Change	binding fitness
T48D	-1.48 natural log
V56W	-1.51 natural log
T37H	-1.5 natural log
